Published values of several laboratories.
A part holds a random share of what one study measured.
Chain of UniProt P15056 (whole entry, unmodified, looked up): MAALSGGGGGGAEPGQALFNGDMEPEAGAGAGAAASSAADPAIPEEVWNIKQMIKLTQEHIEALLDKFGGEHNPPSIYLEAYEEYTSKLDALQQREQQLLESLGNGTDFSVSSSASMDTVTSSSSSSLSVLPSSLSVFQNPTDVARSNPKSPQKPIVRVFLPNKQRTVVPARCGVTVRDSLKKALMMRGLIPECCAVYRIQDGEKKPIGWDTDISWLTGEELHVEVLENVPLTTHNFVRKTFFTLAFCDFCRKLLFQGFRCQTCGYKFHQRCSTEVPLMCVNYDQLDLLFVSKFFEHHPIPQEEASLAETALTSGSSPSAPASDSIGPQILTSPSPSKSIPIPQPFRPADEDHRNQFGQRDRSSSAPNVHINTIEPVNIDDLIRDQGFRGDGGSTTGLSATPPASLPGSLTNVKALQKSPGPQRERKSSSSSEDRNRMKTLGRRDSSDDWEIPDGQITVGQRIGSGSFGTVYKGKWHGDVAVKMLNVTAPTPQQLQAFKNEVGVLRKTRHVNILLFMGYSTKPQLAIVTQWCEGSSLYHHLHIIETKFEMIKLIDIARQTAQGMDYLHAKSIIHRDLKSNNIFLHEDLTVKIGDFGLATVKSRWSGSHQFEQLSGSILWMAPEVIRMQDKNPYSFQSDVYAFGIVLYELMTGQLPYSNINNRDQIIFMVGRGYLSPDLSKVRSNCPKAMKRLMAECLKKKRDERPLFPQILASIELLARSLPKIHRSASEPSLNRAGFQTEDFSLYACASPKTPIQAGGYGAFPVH
Chain of UniProt O00750 (whole entry, looked up): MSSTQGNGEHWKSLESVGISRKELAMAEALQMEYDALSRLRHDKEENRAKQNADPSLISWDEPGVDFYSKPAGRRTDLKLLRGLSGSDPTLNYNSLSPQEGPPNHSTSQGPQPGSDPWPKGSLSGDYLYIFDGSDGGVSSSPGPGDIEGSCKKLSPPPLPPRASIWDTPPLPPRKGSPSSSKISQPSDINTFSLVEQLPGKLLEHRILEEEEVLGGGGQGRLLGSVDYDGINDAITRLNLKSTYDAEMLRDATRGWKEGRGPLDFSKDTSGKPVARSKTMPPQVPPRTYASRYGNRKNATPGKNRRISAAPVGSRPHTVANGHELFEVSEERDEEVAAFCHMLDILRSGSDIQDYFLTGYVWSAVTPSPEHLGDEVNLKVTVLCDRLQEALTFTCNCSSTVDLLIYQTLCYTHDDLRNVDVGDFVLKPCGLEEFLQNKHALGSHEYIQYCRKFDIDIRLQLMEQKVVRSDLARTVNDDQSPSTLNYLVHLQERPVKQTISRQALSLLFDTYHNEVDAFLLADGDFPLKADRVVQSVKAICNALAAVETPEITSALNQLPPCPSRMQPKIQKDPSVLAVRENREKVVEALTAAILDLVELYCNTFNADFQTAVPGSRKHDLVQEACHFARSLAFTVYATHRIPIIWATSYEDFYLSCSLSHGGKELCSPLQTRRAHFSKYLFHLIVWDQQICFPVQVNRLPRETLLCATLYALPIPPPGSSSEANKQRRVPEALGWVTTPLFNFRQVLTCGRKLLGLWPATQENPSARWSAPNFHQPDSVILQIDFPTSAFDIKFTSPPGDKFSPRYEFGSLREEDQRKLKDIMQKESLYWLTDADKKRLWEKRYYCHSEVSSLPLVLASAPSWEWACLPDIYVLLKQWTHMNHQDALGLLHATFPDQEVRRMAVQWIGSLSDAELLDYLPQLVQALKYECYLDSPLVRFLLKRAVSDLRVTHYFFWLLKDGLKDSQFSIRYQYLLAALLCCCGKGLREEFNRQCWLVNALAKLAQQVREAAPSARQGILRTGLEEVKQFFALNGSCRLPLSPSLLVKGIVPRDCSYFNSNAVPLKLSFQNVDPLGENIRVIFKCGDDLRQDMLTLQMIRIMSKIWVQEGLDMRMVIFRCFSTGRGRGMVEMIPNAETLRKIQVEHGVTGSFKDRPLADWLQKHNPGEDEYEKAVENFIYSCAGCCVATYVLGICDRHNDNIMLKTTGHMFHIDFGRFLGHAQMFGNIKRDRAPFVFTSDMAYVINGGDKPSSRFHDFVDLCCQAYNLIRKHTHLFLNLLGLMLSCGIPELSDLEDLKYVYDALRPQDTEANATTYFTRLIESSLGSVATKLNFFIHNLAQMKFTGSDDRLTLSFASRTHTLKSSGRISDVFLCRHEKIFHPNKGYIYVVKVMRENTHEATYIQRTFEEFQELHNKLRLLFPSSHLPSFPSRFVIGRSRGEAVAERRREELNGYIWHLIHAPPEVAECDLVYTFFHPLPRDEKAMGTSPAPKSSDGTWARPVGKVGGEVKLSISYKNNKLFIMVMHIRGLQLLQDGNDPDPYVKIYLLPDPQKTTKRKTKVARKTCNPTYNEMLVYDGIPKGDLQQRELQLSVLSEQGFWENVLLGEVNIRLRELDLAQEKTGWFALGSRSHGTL
Chain of UniProt Q07002 (whole entry, looked up): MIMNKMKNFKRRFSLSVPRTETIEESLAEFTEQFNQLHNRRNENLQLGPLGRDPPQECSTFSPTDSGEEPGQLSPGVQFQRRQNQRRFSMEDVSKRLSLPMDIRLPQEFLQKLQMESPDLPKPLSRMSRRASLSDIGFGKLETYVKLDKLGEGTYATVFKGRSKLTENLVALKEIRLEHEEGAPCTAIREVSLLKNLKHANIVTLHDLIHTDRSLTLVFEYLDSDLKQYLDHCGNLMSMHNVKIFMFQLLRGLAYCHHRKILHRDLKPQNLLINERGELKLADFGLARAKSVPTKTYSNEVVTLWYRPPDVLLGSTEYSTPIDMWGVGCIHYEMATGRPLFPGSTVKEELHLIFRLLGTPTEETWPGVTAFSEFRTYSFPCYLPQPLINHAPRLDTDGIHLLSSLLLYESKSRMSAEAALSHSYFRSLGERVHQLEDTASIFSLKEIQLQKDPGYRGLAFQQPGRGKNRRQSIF
Chain of UniProt Q9Y2I7 (whole entry, looked up): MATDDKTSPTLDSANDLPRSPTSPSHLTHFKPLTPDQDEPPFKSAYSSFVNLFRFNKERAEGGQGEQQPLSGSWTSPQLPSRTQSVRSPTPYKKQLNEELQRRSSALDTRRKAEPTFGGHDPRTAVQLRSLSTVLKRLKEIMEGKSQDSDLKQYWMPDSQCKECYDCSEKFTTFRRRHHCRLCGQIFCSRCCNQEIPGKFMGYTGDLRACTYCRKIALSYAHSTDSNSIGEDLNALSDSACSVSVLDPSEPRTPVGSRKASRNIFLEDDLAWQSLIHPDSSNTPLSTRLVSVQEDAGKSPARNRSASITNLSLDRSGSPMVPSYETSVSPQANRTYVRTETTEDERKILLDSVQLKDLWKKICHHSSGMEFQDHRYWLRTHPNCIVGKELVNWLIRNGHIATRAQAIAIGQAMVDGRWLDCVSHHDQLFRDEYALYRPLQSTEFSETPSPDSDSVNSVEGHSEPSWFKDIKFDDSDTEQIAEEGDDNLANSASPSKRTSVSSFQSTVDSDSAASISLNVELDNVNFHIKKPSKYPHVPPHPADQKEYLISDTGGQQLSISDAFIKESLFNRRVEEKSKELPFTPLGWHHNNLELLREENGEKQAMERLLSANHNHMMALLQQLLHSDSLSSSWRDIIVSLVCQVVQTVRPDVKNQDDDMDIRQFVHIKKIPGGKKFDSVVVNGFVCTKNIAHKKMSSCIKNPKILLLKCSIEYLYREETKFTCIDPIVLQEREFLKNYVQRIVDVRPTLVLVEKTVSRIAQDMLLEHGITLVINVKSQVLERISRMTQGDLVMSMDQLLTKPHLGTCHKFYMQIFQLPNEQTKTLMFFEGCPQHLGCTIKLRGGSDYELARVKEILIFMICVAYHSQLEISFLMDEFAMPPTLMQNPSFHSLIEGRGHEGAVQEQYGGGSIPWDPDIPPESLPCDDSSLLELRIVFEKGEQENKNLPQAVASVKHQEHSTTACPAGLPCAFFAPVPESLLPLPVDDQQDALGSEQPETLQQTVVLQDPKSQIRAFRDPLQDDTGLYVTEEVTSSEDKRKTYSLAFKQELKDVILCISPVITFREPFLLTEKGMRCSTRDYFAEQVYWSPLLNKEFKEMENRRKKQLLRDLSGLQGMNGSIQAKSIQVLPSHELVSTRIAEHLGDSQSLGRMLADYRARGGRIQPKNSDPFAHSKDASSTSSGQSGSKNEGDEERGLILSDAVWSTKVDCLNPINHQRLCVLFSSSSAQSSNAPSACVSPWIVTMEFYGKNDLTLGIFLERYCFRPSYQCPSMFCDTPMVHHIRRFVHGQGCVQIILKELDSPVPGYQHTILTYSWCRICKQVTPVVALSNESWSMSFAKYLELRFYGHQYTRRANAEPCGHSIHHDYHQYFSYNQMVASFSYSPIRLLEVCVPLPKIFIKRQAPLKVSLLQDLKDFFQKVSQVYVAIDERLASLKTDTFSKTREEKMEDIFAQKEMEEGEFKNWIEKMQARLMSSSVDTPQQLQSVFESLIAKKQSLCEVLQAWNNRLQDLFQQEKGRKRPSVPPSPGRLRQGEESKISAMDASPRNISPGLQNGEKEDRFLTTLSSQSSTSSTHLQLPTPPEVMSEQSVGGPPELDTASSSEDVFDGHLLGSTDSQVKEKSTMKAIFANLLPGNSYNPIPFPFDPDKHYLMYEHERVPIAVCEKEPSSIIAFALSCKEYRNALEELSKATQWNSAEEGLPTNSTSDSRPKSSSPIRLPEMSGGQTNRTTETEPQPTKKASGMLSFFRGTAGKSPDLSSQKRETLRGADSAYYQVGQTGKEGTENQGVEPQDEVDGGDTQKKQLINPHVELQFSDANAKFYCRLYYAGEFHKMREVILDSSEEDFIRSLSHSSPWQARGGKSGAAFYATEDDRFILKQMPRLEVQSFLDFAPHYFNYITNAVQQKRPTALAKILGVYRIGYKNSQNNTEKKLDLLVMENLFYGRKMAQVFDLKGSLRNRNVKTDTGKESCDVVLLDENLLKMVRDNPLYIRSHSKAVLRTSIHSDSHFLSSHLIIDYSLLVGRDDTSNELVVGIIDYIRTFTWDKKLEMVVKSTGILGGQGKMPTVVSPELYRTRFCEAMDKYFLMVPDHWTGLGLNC

Sample 1
Compound: Cn1cncc1[C@@](O)(COc1ccc(C#N)cc1-c1ccc(OC(F)(F)F)cc1)c1ccc(C#N)cc1
Concentration: 1 µM
It gave 100% for remaining binding (MAP4K3 (Homo sapiens, UniProt Q8IVH8); cell-free assay, competition with immobilised ligand).
The remaining binding was 92% (Tyrosine-protein kinase ABL1, phosphorylated (ABL1, Homo sapiens, UniProt P00519, H396P); cell-free assay, competition with immobilised ligand).
For CDK18 (Homo sapiens, UniProt Q07002); cell-free assay, competition with immobilised ligand: remaining binding read 100%.
CAMK1G (Homo sapiens, UniProt Q96NX5); cell-free assay, competition with immobilised ligand — remaining binding: 85%.
For EGFR (Homo sapiens, UniProt P00533, L861Q); cell-free assay, competition with immobilised ligand: remaining binding read 100%.
For KIT (Homo sapiens, UniProt P10721, V559D); cell-free assay, competition with immobilised ligand: remaining binding read 97%.
It gave 100% for remaining binding (BRAF (Homo sapiens, UniProt P15056, V600E); cell-free assay, competition with immobilised ligand).
Tyrosine-protein kinase ABL1, phosphorylated (ABL1, Homo sapiens, UniProt P00519, Q252H); cell-free assay, competition with immobilised ligand — remaining binding: 84%.
PIKFYVE (Homo sapiens, UniProt Q9Y2I7); cell-free assay, competition with immobilised ligand — remaining binding: 100%.
PIK3C2B (Homo sapiens, UniProt O00750); cell-free assay, competition with immobilised ligand — remaining binding: 95%.
FRK (Homo sapiens, UniProt P42685); cell-free assay, competition with immobilised ligand — remaining binding: 100%.
CDC42BPG (Homo sapiens, UniProt Q6DT37); competition binding — remaining binding: 96%.

Sample 2
Compound: COc1ccc(-c2c(Nc3ccccn3)[nH]c3c(C4=CCCCC4)c(-c4ccccc4)nn3c2=O)cc1
Host: human
Medium: plasma
Route: oral
150 mg once daily — Tmax: 2 h.
LC-MS/MS non-compartmental; 200 mg, day -3 of cycle 0, single dose, median — Tmax: 3 h.
The Tmax was 0 h (200 mg once daily).
The Tmax was 6 h (50 mg once daily).
The Tmax was 0 h (LC-MS/MS non-compartmental; 200 mg twice daily, cycle 1).

Sample 3
Target: HLA class I histocompatibility antigen, C alpha chain, allele C*04:01 (Homo sapiens, UniProt P10321)
Observed: peptide-MHC binding
Molecule type: peptide
Concentration: concentration not given
`MMMSTAVAF`: binding “inactive”.
Under binding, `RVYAHVRSV` is recorded as “inactive”.
`LQPSDTLLF`: binding “inactive”.
Under binding, `MMAKSNSPF` is recorded as “inactive”.
Under binding, `FRMLAWHVL` is recorded as “inactive”.
Under binding, `FTDISMSLY` is recorded as “inactive”.
`MPFAWQFGF` — result for binding: “inactive”.

Mixed results
With `N[C@H]1C[C@@H]1c1ccccc1` the inhibition was -8% (Calcium/calmodulin-dependent protein kinase type II subunit alpha (CAMK2A, Homo sapiens, UniProt Q9UQM7); enzyme activity, inhibitor; 10 µM).

A few entries again (sample 2):
The Tmax was 0 h (LC-MS/MS non-compartmental; 200 mg twice daily, cycle 1).
The Tmax was 6 h (50 mg once daily).
